Results pooled from the literature.
Parts stem from different laboratories: compare values within a part only.

Sample 1
Target: Replicase polyprotein 1ab, main protease (rep, Severe acute respiratory syndrome coronavirus 2, UniProt P0DTD1)
Read-out: enzyme activity
Action: inhibitor
Tested at: 20 µM
Measurement: inhibition
O=C1C(=Cc2cccnc2)C(=O)c2ccccc21: 60.4%
C[n+]1c2cc(N)ccc2cc2ccc(N)cc21.Nc1ccc2cc3ccc(N)cc3nc2c1: 68%
COC(=O)/C=C/c1cc(O)ccc1O: -54.6%

Sample 2
Target: Max-binding protein MNT, bHLH-zipper, MAX partner unstated (MNT, Homo sapiens, UniProt Q99583, residues 220-300)
Method: protein-binding microarray
Form: double-stranded DNA, one strand shown
Matrix: in vitro
Tested at: not given
Notes: k-mer, scored over probes, only values ≥0.25
Reading: higher = stronger binding
Measurement: E-score
Construct (chain): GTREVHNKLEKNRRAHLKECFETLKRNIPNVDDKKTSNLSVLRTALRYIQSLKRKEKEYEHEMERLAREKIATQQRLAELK
CGCAACCA: 0.268
CAGGCACG: 0.36
CAACGTGC: 0.448
CACGTGAC: 0.497
CGTGGGCC: 0.305
ACGTGTGA: 0.405

Sample 3
Target: Interferon regulatory factor 7, full length, phosphomimetic (IRF7, Homo sapiens, UniProt Q92985, residues 1-503, S101K/S471D/S472D/S475D/S476D/S477D/S483D/S484D/S487D)
UniProt Q92985, sequence (whole entry, unmodified, looked up): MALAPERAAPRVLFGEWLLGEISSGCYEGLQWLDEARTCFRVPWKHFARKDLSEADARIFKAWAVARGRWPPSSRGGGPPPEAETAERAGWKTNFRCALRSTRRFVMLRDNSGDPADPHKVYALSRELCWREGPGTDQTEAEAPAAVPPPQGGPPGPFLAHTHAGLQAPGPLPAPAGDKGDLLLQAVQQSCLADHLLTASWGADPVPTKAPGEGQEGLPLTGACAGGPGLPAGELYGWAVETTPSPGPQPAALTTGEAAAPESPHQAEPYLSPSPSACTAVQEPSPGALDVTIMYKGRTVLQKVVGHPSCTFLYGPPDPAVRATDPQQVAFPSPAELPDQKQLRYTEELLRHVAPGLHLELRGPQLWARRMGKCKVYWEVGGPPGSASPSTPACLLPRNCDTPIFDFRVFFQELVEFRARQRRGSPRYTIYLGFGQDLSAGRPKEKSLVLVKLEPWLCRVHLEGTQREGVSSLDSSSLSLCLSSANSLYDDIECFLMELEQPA
Method: protein-binding microarray
Form: double-stranded DNA, one strand shown
Matrix: in vitro
Tested at: 250 nM
Notes: 60-bp whole probe
With: salmon DNA 0.4 mg/ml
Relative to: random background probes
Reading: higher = stronger binding
Measurement: log fluorescence
All sequences stand within: GCCTAGCAC … GTCTTGATTCGCTTGACGCTGCTG
CCTCCTCTAACTTTCCAATTGTGCTAG: 0.493 z-score
TCATTTCTTTGCTTCACACTGTGCTAG: 1.78 z-score
CCGTGTTTCTCAAATGTTTTGGTGCTA: 1.57 z-score
TCATCTTTCCACTTTCTACTGTGCTAG: 2.08 z-score
TTAGGTTTCTGGTATCGGTTAGTGCTA: 3.14 z-score
TTAGGTATCGGAGTGGGTTAGTGCTAG: -0.432 z-score
GAAGGTCACAAAGACTTCATGTGCTAG: -0.526 z-score
TGTAATGATGTAGGCAAATGGTGCTAG: -0.343 z-score

Sample 4
Target: Replicase polyprotein 1ab, nsp13 helicase (rep, Severe acute respiratory syndrome coronavirus 2, UniProt P0DTD1)
Action: inhibitor
Tested at: 20 µM
Measurement: inhibition
COc1cc2c(cc1F)C(c1ccccc1Cl)=Nc1c(n[nH]c1C)N2: 6.69%
C[C@@H]1CC(=O)c2c(ccc3c2C(=O)c2cccc(O)c2C3=O)C1: 2.6%
O=C(O)CCNc1cc(N2CCc3ccccc3CC2)nc(-c2ccccn2)n1: -0.36%
CC(=O)OCC(=O)[C@@]1(O)CC[C@H]2[C@@H]3CCC4=CC(=O)CC[C@]4(C)[C@H]3[C@@H](O)C[C@@]21C: 2.13%
CC(C)n1nccc1-c1ncccc1COc1cccc(O)c1C=O: 0.78%
O=C(NOCC(O)CO)c1cc(Br)c(F)c(F)c1Nc1ccc(I)cc1F (centres unmarked): 4.55%
N=C(N)SCc1ccc(B(O)O)cc1: 15.8%
Cc1cccc(Nc2nc(-c3ccncc3)cs2)c1: 10.1%
O=C1c2ccccc2C(Cc2ccnc(F)c2)(Cc2ccnc(F)c2)c2ccccc21: 3.88%
CN1C(=O)OC(C)(C)C1=O: 8.21%
CN(C)C/C=C/C(=O)Nc1cccc(C(=O)Nc2cccc(Nc3ncc(Cl)c(-c4c[nH]c5ccccc45)n3)c2)c1: 10.6%
CN1CCN(c2c(F)cc3c(=O)c(C(=O)O)cn4c3c2SCC4)CC1: 6.8%
CC(CCc1ccccc1)NCC(O)c1ccc(O)c(C(N)=O)c1 (centres unmarked): -0.63%
COc1ncc2cc(C(=O)Nc3cc(C(=O)NCc4cccc(Cl)c4)ccc3Cl)c(=O)[nH]c2n1: -4.21%
C[N+]1([O-])[C@@H]2C[C@@H](OC(=O)[C@H](CO)c3ccccc3)C[C@H]1[C@@H]1O[C@@H]12 (some centres unmarked): 6.36%
CNC(=O)c1cc(Oc2ccc(NC(=O)Nc3cc(C(C)(C)C)nn3-c3ccc4ncccc4c3)c(F)c2)ccn1: 0.06%
O=C(Nc1c[nH]nc1-c1nc2ccc(CN3CCOCC3)cc2[nH]1)NC1CC1: 5.92%
CC1CNc2c(cccc2S(=O)(=O)N[C@@H](CCCNC(=N)N)C(=O)N2CC[C@@H](C)C[C@@H]2C(=O)O)C1 (some centres unmarked): 3.84%
COc1cc(OC)cc(C(=O)NNC(=O)Nc2cccc3ccccc23)c1: 5.82%
CSc1ccc([C@@H]2CN3CCC[C@@H]3c3ccccc32)cc1 (racemic): 5.54%
CCN1C[C@]2(COC(=O)c3ccccc3N3C(=O)C[C@H](C)C3=O)CC[C@H](OC)[C@@]34[C@@H]5C[C@H]6[C@H](OC)[C@@H]5[C@](O)(C[C@@H]6OC)[C@@](O)([C@@H](OC)[C@H]23)[C@@H]14: 2.26%
CO[C@H]1C[C@H](O[C@H]2CC[C@@]3(C)[C@H](CC[C@@H]4[C@@H]3CC[C@]3(C)[C@@H](C5=CC(=O)OC5)[C@@H](OC(C)=O)C[C@]43O)C2)O[C@@H](C)[C@@H]1O: 9.35%

Sample 5
Cell line: HEK-293T
Read-out: pseudovirus infection
Method: FDA-approved drug library screen
Organism: VSV pseudotyped with SARS-CoV-2 spike
Tested at: 10 µM
Time: 16 h
Relative to: vehicle-treated
Measurement: GFP-positive cells
CCOC(=O)[C@H](CCc1ccccc1)N[C@H]1CCc2ccccc2N(CC(=O)O)C1=O: 86.2%
CCN(CC)CCNC(=O)c1ccc(N)cc1: 104%
O=C(Nc1ccc([N+](=O)[O-])cc1Cl)c1cc(Cl)ccc1O: 16%

Sample 6
Target: Histone acetyltransferase KAT6A, winged helix 2, GST fusion (KAT6A, Homo sapiens, UniProt Q92794, residues 85-181)
Method: protein binding microarray
Form: double-stranded DNA, one strand shown
Matrix: in vitro
Tested at: not given
Notes: 8-mer, flanks averaged, mean of 2 arrays, mostly near background
Relative to: not given
Reading: higher = stronger binding
Measurement: E-score
Target sequence (chain): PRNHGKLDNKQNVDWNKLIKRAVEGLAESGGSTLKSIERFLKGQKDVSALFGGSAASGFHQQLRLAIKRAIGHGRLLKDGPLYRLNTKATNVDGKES
ATCTCGCC: 0.0514
ATGGGATA: -0.0458
ACGTCCGA: -0.167
AACAACAA: 0.122
TGCTACCA: 0.112
GGTTGAGA: 0.0575
CAAGTCCC: -0.0959
TATCATAA: -0.0372

Some of these lines once more (sample 1):
C[n+]1c2cc(N)ccc2cc2ccc(N)cc21.Nc1ccc2cc3ccc(N)cc3nc2c1: 68%
COC(=O)/C=C/c1cc(O)ccc1O: -54.6%
O=C1C(=Cc2cccnc2)C(=O)c2ccccc21: 60.4%
